Measurements from different studies.
Compare with care: the assays were run in different laboratories.

Structure (SMILES)	test system	setting	half-life
Cc1cccc(C)c1CNc1cc(C(=O)N2CCC2)cn2c(C)c(C)nc12	male Sprague-Dawley rat, plasma	oral, 10 mg/kg	1.9 h
C=C(NC(=O)c1csc(-c2nc3c(cc2O)-c2nc(cs2)C(=O)NC(C(C)O)C(=O)NC(=C(C)OC)c2nc(cs2)C(=O)NC2c4nc(cs4)C(=O)NC(COC(=O)c4c5c6c(cccc6n4O)COC(=O)C(OC4CC(C)(O)C(N(C)C)C(C)O4)C2OC5)c2nc-3cs2)n1)C(N)=O (stereo not shown)	female Sprague-Dawley rat, plasma	intravenous, 6 mg/kg, single dose, infusion	5.37 h
COC(=O)C1=CNC=C(C(=O)OC)C1c1ccc(F)c(C(F)(F)F)c1	male Sprague-Dawley rat, plasma	intravenous, 5 mg/kg	1.15 h
COCCN(C)CC(=O)NC(Cc1ccc(-c2ccccc2)cc1)B(O)O (stereo not shown)	rat, plasma	oral, 1 mg/kg	3.7 h
CNC(=O)C1CCCN(C(=O)C2CC3CCC2N3C(=O)[C@@H]2C[C@@H](O)CN2C(=O)NCc2cccc(Cl)c2F)C1 (mixture of isomers)	rat, plasma	oral, 8 mg/kg	7.31 h
Cc1cc2c(cc1O)C=C1C=CC(=O)C(C)(C)[C@H]1CC2	male Sprague-Dawley rat, plasma	intravenous, 2 mg/kg	0.75 h
CCC(CC)n1c(Cc2cccs2)nc2cc(C(=O)N[C@@H](CC(=O)O)c3ccccc3)ccc21	male Sprague-Dawley rat, plasma	intravenous, 1 mg/kg	1.42 h
OC1(C(F)(F)F)CCN(c2nc(Nc3ccnc(C(F)(F)F)c3)nc(-c3cccc(C(F)(F)F)n3)n2)C1 (stereo not shown)	Sprague-Dawley rat, plasma	oral, 10 mg/kg	13.8 h
CN1CCC[C@@H]1C(=O)N[C@@H](Cc1ccc(-c2ccccc2)cc1)B(O)O	male Sprague-Dawley rat, plasma	oral, 1 mg/kg	4 h
OCC1OC(n2cnc3c(NCc4ccc(Br)s4)ncnc32)C(O)C1O (stereo not shown)	male Sprague-Dawley rat, blood	intravenous, 6 mg/kg	2.1 to 4 h
CC(=Nc1ccc(N)cc1)N(C)C	male Sprague-Dawley rat, plasma	oral, 200 mg/kg	6.54 h
C/C(N)=N/C(=N\S(=O)(=O)c1ccc(C(F)(F)F)cc1)N1C[C@H](c2ccccc2)C(c2ccc(Cl)cc2)=N1	male Sprague-Dawley rat, plasma	oral, 3 mg/kg	4.4 h
O=C(O)c1c(O)cc(O[C@@H]2O[C@H](CO)[C@@H](O)[C@H](O)[C@H]2O)cc1/C=C/c1ccccc1	male Sprague-Dawley rat, plasma	intravenous, 1 mg/kg	0.895 h
COC1C(c2ccc(Cl)c(Cc3ccc(OC4CCOC4)cc3)c2)OC(CO)C(O)C1O (stereo not shown)	Sprague-Dawley rat, plasma	oral, 5 mg/kg	1.87 h
CC1(C)C(NC(=O)C(=NOC2(C(=O)O)CCC2)c2csc(N)n2)C(=O)N1OS(=O)(=O)O (stereo not shown)	rat, plasma	intravenous, 10 mg/kg, single dose	0.55 h
Cc1[nH]nc2c1N=C(c1ccccc1Cl)c1cnc(N3CCOCC3)cc1N2	male Sprague-Dawley rat, plasma	intravenous, 1 mg/kg	3.6 h
O=c1c(-c2ccc(Cl)c(CN3CCOCC3)c2)coc2cc(O)ccc12	male Sprague-Dawley rat, plasma	oral, 10 mg/kg	4.07 h
CCC(CC)n1c(Cc2ccco2)nc2cc(C(=O)N[C@@H](CC(=O)O)c3ccccc3)ccc21	male Sprague-Dawley rat, plasma	intraperitoneal, 10 mg/kg	4.43 h
O=C(C1CCN(c2nnnn2-c2ccccc2)CC1)N1CCCc2ccccc21	male Sprague-Dawley rat, plasma	intravenous, 1 mg/kg	1.49 h
